Results gathered from unrelated publications.
A part holds a random share of what one study measured.

Series 1
Target: Histone acetyltransferase KAT6A, both winged helices, GST fusion (KAT6A, Homo sapiens, UniProt Q92794, residues 1-181)
Method: protein binding microarray
Form: double-stranded DNA, one strand shown
Matrix: in vitro
Concentration: not given
Notes: 8-mer, flanks averaged, mean of 2 arrays, mostly near background
Baseline: not given
Direction: higher = stronger binding
Endpoint: E-score
Residues (chain): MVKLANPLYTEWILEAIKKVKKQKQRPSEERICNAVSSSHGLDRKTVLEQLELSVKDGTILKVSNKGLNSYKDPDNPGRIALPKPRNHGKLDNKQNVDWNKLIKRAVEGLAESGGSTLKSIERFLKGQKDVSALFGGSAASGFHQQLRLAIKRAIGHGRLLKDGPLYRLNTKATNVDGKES
ACCTATTC: -0.063
AGCCTGTA: -0.134
CTAGCCTA: -0.097
AAGGTAGC: 0.045
GCCTTCCC: -0.0257
AGCATGCT: -0.158
AGAGACAT: -0.206
ATCTGCCA: -0.181
AGCGCAAC: 0.241
CGACTGTC: 0.0481
ATATCAAT: -0.00071
AAGTGACG: 0.0776
CGCTGACG: 0.249
AATCTGCC: -0.0132
CAGGTACA: -0.12
TACCTTCA: -0.159
CCTTGCGA: -0.0596
AGAGCATG: -0.0752
CTTACTTC: 0.0308
CGTAGAGA: 1.5e-05
GAGGCCTC: -0.0633
CGCGGTTC: 0.327
GCATAAAC: 0.114
CTAGAGAC: -0.0619
CCCATCGG: -0.0177

Series 2
Target: Interferon regulatory factor 5, full length, phosphomimetic (IRF5, Homo sapiens, UniProt Q13568-2, residues 1-514, S451D/S453D/S456D/S462D)
Method: protein-binding microarray
Form: double-stranded DNA, one strand shown
Matrix: in vitro
Concentration: 940 nM top
Notes: 60-bp whole probe
Added: salmon DNA 0.4 mg/ml
Baseline: random background probes
Direction: higher = stronger binding
Endpoint: fitted relative affinity
Constant ends, left off below: GCCTAGCAC … GTCTTGATTCGCTTGACGCTGCTG
GACGGTATCGACTTTCGGGCCGTGCTA: 4.01 z-score
AACGGACTGGACTATCGGGACGTGCTA: -0.24 z-score
TCATTTTTTTTTTCCCTACTGTGCTAG: 1.55 z-score
TTAGATTTCGGTATCGGTTAGTGCTAG: 7.07 z-score
GAGGATTTCAGTTCCGAGACGTGCTAG: 0.269 z-score
TTAAAACTGAGTATCGATTAGTGCTAG: 4.87 z-score
TTAGGAATGGACTATCGGTTAGTGCTA: -0.161 z-score
GCCGAACTGAGTATCGAGACGTGCTAG: 2 z-score
AAATGATTGGTTGAACATGAGTGCTAG: -0.191 z-score
TTAGATATCAATTTCGATTAGTGCTAG: 1.41 z-score
GACGTTTTCGGGTTTCGAGACGTGCTA: 2.86 z-score
GTCGATTTCAGTTTCGAGACGTGCTAG: 7.39 z-score
TCCAGGCTGGTCTCTAACTCAGTGCTA: -0.0332 z-score
TTAGGACTGCTTATCCTGTAGTGCTAG: -0.208 z-score
TTAGAGTTCAGTCTCGATTAGTGCTAG: 3.31 z-score
TCAGGTCTCGGACTGGGTTAGTGCTAG: 0.647 z-score
GACGATCTCAGACTGGATACGTGCTAG: -0.064 z-score
TTAGATATCGGGTTTCGATTAGTGCTA: 5.23 z-score
TTAGGTATCCTACTGCTGTAGTGCTAG: 0.011 z-score
ATTTATTTACTCTCTACATGGGTGCTA: 1.44 z-score

Series 3
Target: RING finger protein unkempt homolog, zinc fingers 1-6, GST-SBP tag (UNK, Homo sapiens, UniProt Q9C0B0, residues 30-357)
Method: RNA Bind-n-Seq
Form: RNA
Matrix: in vitro
Concentration: not given
Notes: RNA with constant flanks, human-mouse chimeric sites, ends assumed
Baseline: input RNA pool
Direction: higher = stronger binding
Endpoint: bound/input enrichment
Residues (chain): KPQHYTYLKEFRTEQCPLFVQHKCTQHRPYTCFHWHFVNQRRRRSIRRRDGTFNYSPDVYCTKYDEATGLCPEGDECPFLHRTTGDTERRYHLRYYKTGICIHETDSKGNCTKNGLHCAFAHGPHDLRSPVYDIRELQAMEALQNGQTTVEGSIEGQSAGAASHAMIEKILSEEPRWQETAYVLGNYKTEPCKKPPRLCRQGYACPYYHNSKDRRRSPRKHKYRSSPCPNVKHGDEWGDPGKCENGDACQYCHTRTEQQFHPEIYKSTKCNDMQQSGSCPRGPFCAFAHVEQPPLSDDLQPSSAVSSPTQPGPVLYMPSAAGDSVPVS
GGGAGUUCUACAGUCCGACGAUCCACAGAGGAGAUCUGCUGUUCCUCACGAAUUUCCGGGAAGACCCAAUCAGAGCUGGUGAAAUAGUUGUUUUUAAGGUUGAAGGAAGAGACAUUCCGAUAGUUCACAGAGUAAUCAAAGUUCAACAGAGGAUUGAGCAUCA: 1.55 ratio
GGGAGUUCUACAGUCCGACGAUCAUUGUUGAAGCGAAUCCACUUUUAGAAGCAUUUGGAAAUGCAAAGACUGUUCGCAACAAUAAUAGCAGUCGAUUUGGAAAAUUUGUAGAAAUACAUUUUAAUGAAAAGAGUUCGGUUGUUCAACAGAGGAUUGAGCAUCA: 0.296 ratio
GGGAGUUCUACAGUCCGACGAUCGUCAACAGCUGCCUCAACCCCAUCCUCUACGCCUUCCUGGAUGAGAACUUCAAGGCCUGCUUCCGCAAGUUCUGCUGUGCUUCUGCCCUGCGCCGGGACGUGCAGGUUUCUGAUCGUGUGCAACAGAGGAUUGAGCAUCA: 0.243 ratio
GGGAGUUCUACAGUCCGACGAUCUGGCGCCUCCCAUUUUUGUUUUUAAAUUUAAGUGUAUUUUUAUAAGAUACAUGUAUUUACAAUUGAGCUUUUGUUACAUAAUGCUGAAAUGCUACUGGAGAUUAUGAAAAAUGUUUCAAUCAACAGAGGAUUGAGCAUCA: 0.673 ratio
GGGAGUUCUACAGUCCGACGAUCAAUUUCCUGUCAUACUUUGUAGCAAGACACAUCAGACGCCUUACUACCCUGGCCACAUUCUAGGUUUGUGUUAUUUCUCAGCUAUGGAUAUGAUCAAAUGAGAACACUGCUUAACUAAUGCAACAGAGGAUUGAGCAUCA: 0.207 ratio
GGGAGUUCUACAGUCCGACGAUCAAAGAGAAAGCUAAAACACUAAUAGAGAAGAGGAUUGGCAAAGAGAAUUUCAUAGAGAAACUAGGAUUUAUUAGCAAACAUGAGUUAUAUUCCAGAGCGUCUCAGAAAACCCCAGCCAACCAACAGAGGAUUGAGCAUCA: 5.59 ratio
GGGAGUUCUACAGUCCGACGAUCAUGGAACAUUUCGAUGCGUCACUCAGUACCUAUUUCAAGGCCUUCCUGGGCCCCCGAGAUACAAGAGUAAAAGGAUGGUUCCUCCUGGACAAUUAUAUCCCUACGUUUGUCUGUUCUGUUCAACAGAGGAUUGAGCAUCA: 0.103 ratio
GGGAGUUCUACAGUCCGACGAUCUCAAGGGGGCACUGCAGAGCCAUGCCUUUCCUUGACAUACAGAAAAAGCUGGGCAUCAGCCUGGACCGGCACUUUAUGUUCCUAAGCGCAGAACAGCCCUAUAAGAAGGCUGGUCGAUGCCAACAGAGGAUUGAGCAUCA: 0.082 ratio
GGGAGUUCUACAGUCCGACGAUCAGAUUCCCCCUCCUGAGACCUCCUCCGAAGUUGGAGUCUCUUACAGAUGCCUCAUCCCCUGUUAGUAUUUUAGUUUGGACCACACAACCUUGGACAAUUCCCGCCAACCAGGCAAUUUGCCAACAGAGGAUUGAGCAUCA: 3.14 ratio
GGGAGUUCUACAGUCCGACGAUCAGAGAUAAGACAUCCAGGAACAUGCGAGGCUCCCGGAUGAAUGGACUGCCUAGCCCCACUCACAGCGCCCACUGUAGCUUCUACAGAACCAGAACCUUGCAGGCACUGAGUAAUGAGAAGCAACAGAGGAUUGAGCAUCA: 0.137 ratio
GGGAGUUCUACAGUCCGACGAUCCACUCGAGGGCUGCCGUUUUCUGUUUCUCCCUGGGCUGCGGAAAGCCAGAAGAUUUUAUCUAGCUUAUACAAGGCUGCUGGAGCUUGCUCUUUUUUUCCACGAGGGUGUUUUUGGCUGCACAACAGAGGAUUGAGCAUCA: 0.362 ratio

Series 4
Target: RNA binding protein fox-1 homolog 2, RRM domain, GST-SBP tag (RBFOX2, Homo sapiens, UniProt O43251-10, residues 100-194)
Method: RNA Bind-n-Seq
Form: RNA
Matrix: in vitro
Concentration: 365 nM
Notes: natural RNA segment, single round, ends assumed
Baseline: no-protein control
Direction: higher = stronger binding
Endpoint: RBNS enrichment (R)
Construct (chain): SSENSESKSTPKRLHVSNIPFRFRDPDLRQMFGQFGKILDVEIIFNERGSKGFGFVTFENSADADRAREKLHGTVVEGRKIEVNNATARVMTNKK
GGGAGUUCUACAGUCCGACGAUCGGGCUAGAGAACAUACUUUACAUCUGACAUCCUUUGGCCUAACAACAUCUAUUAUUAUAGUGCUCAGCAGUGUGGGCAUUGAAGAGGCGCAGAAUGCUUUGAAAGAAACUUGGAAUUCUCGGGUGCCAA: 0.528
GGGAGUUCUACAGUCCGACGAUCGUAACAAUCUGGAAGGAAACUUCACGGACAGGAAGACUGCUGGAGAAGAGAAGCGUGUUAGCCCAUUUGAGGUCUGGGGAAUCAUGUAAAGGGUACCCAGACCUCACUUUUGGAAUUCUCGGGUGCCAA: 0.411
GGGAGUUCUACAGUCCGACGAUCCAGCCUGGACAGGGUCUCUGCUGACUGCCAGGGGCGGGGGCUCUGCAUAGCCAGGAUGACGGCUUUCAUGUCCCAGAGACCUGUUGUGCUGUGUAUUUUGAUUUCCUGUGUGGAAUUCUCGGGUGCCAA: 1.03
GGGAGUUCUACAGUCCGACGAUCAACAAUGACAAACCACACAAUUGUUGUUGAGUAAACCACGCACAAUGGCAUGUCUUUCUUUUUCUGCCAGAAAAUCUAUUUUAAGAAACCAGAAUAGUCAACAGUGUUCAUGGAAUUCUCGGGUGCCAA: 0.443
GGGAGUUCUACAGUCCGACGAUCGGCCUCCGAUUCACUCCUGUCCCCUUCCCUGACUUGGUGCUCACAGGCACCUCACUGGGGAUUAUGACCAGGGUCUAGACGAGCUUGAGUCUGAAUUGAGUUUGUAUUUCUGGAAUUCUCGGGUGCCAA: 0.317
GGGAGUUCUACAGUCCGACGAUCGUAGAAAGAUCUCAGGAAAGCACCUUUCUCCUUUUCAGGGUGACCGUGCUCUUCACACUCUCUGAGGCCUCAGUCCAUGUCCUAUAUCAGUUUCUCUUUUGUGUGCUUUAUGGAAUUCUCGGGUGCCAA: 0.238
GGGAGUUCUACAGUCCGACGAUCUCUCACUAAGCUUCGUGUAUAAAUGGAAUACAUUAUUUUUCAAACAAACGAAUAAAUGGCUUACAUGCCUGGUCUGGGACCUGUUCUUGUGCCGAGGGGUAAUGUGUACUUGGAAUUCUCGGGUGCCAA: 0.996
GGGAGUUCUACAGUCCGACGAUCAUUCAUAGAUUAUUCAGCCUUUGCAGGACUUGGAUUCAGGGUUUUACUCAGUCCCUUUACCUUAGGUGGAAUCUUCUUAAAUUGAAAUUUUUGGUAAGGAAUUCAUUUCAUGGAAUUCUCGGGUGCCAA: 0.339
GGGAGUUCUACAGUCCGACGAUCAGCUCUAAAACAUAGACUGAAGAUUUAUUUUUAAUAUGUUGACUUUAUUUCUGAGCAAAGCAUCGGUCAUGUGUGUAUUUUUUCAUAGUCCCACCUUGGAGCAUUUAUGUUGGAAUUCUCGGGUGCCAA: 0.696
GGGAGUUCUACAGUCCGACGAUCACUGCCUUGCUUUCCCCGGUUCUUUCCCCUGCUAGCACCUGCUUUCUCAUCCCUAUCUCCAGUCAAAGAUGGGAUUGCUUAAUCCAACUCUGGAGAGGGACCAAGUCUUUUGGAAUUCUCGGGUGCCAA: 0.815
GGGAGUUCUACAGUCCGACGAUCAGUAGGCCCCUGGUCAGAAGUGCCAUCUCACCAGUGGUCUUCAUUCUUCCUCAUUCAUUCUUUAUCAUCCUGUGUUCUGUUUAGUUGCAACAAUCUCUUGUGACUAAUGUUGGAAUUCUCGGGUGCCAA: 0.309
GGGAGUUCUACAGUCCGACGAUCUGUAUUUCUAAUUUGCAUAUUUAAUUUUGUCAACACUAAGAAAUGUUCAUGUGUUGAAUUUGUAAAUAUAAUUUGCAACCAAAUGAAGUAUUUAUUUUUAAAAAGAAAAGUGGAAUUCUCGGGUGCCAA: 0.623

Repeated from above (series 2):
TCATTTTTTTTTTCCCTACTGTGCTAG: 1.55 z-score
TTAGATTTCGGTATCGGTTAGTGCTAG: 7.07 z-score
GAGGATTTCAGTTCCGAGACGTGCTAG: 0.269 z-score
TTAAAACTGAGTATCGATTAGTGCTAG: 4.87 z-score
TTAGGAATGGACTATCGGTTAGTGCTA: -0.161 z-score
GCCGAACTGAGTATCGAGACGTGCTAG: 2 z-score
AAATGATTGGTTGAACATGAGTGCTAG: -0.191 z-score
TTAGATATCAATTTCGATTAGTGCTAG: 1.41 z-score
GACGTTTTCGGGTTTCGAGACGTGCTA: 2.86 z-score
